Results of several laboratories.
Each numbered part is a random draw from the data of one study; scales do not carry over between parts. Substitutions count along the parent as printed.

Block 1
Target: Prothrombin, mature alpha-thrombin (F2, Homo sapiens, UniProt P00734)
Method: aptamer microarray, sandwich
Molecule type: DNA with 2'F-ANA
Sample: in vitro
Tested at: 200 nM
Setting: whole 15-mer aptamer, many near background
With: Cy3 exosite-II aptamer, 400 nM
Reading: higher = stronger binding
Measurement: mean fluorescence intensity
Sequence: GGTTGGTGTGGTTGG
Modification = 2'F-ANA at 1 4 5 8 10 12 13 15; value = 45.1 a.u.
Modification = 2'F-ANA at 1 3 4 5 7 9 10 11 12 13 14; value = 67.7 a.u.
Modification = 2'F-ANA at 3 10 11 14; value = 448 a.u.
Modification = 2'F-ANA at 1 2 3 4 5 6 9 10 12 13 14; value = 116 a.u.
Modification = 2'F-ANA at 7 8 9 10 12 13; value = 243 a.u.
Modification = 2'F-ANA at 1 2 3 5 6 7 8 10 11 12; value = 70 a.u.
Modification = 2'F-ANA at 2 4 5 6 10 11 12 14; value = 46.1 a.u.
Modification = 2'F-ANA at 1 3 4 6 7 8 10 11 14 15; value = 54.9 a.u.
Modification = 2'F-ANA at 3 5 6 8 10 11 14; value = 51.5 a.u.
Modification = 2'F-ANA at 2 6 8 9 13 14 15; value = 106 a.u.
Modification = 2'F-ANA at 1 6 9 15; value = 181 a.u.
Modification = 2'F-ANA at 3 6 10 13 14; value = 355 a.u.
Modification = 2'F-ANA at 1 3 4 5 7 8 9 10 13 15; value = 47.4 a.u.
Modification = 2'F-ANA at 1 2 3 6 8 9 10 11 13 15; value = 58.2 a.u.
Modification = 2'F-ANA at 1 3 4 7 8 9 10 12 14; value = 132 a.u.
Modification = 2'F-ANA at 1 2 4 7 8 9 15; value = 339 a.u.
Modification = 2'F-ANA at 3 4 8 9 10 12 14; value = 208 a.u.
Modification = 2'F-ANA at 1 2 3 4 5 6 7 11; value = 54.6 a.u.
Modification = 2'F-ANA at 3 4 9 13 14; value = 290 a.u.
Modification = 2'F-ANA at 1 3 4 6; value = 215 a.u.
Modification = 2'F-ANA at 1 6 7 8 10 11 12 14; value = 54.6 a.u.
Modification = 2'F-ANA at 3 5 7 8 9 11 12 14; value = 91.4 a.u.
Modification = 2'F-ANA at 2 4 6 8 9 13 14 15; value = 72.2 a.u.
Modification = 2'F-ANA at 1 2 4 5 7 10 12 13 14 15; value = 51.3 a.u.

Block 2
Target: Histone acetyltransferase KAT6A, both winged helices, GST fusion (KAT6A, Homo sapiens, UniProt Q92794, residues 1-181)
Method: protein binding microarray
Molecule type: double-stranded DNA, one strand shown
Sample: in vitro
Tested at: not given
Setting: 8-mer, flanks averaged, mean of 2 arrays, mostly near background
Reference: not given
Reading: higher = stronger binding
Measurement: E-score
Residues (chain): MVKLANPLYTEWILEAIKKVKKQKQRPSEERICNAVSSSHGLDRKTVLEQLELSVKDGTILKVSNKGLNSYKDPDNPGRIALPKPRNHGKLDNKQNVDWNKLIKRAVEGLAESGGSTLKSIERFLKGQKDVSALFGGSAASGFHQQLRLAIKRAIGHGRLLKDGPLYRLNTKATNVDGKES
Sequence = ACTTAGTG; value = -0.328
Sequence = TATCAAGA; value = -0.211
Sequence = GTTCTGCA; value = 0.0154
Sequence = ACGGCCAA; value = 0.151
Sequence = AGGCGGCC; value = 0.206
Sequence = AGTTGATG; value = -0.189
Sequence = CTTCAAGC; value = -0.0447
Sequence = AGGTGTGG; value = -0.0902
Sequence = AGACACGC; value = 0.185
Sequence = CCATATGC; value = 0.00662
Sequence = GCTCCTAA; value = -0.16
Sequence = AGCCAAAG; value = -0.112
Sequence = TGCTAAAA; value = -0.069
Sequence = AGAGCGTA; value = 0.15
Sequence = CGGGCGTA; value = 0.278
Sequence = CATCAGAC; value = 0.0279
Sequence = CTCATCAA; value = -0.053
Sequence = TCACCAAA; value = -0.0519
Sequence = CCACTCCA; value = -0.18
Sequence = CAGCTAGG; value = -0.244
Sequence = ATGTTCAC; value = -0.1
Sequence = AGATCGGC; value = 0.15
Sequence = CCAACAAC; value = -0.231
Sequence = ACCAGCTG; value = -0.0715

Block 3
Target: Transcriptional repressor CTCF (CTCF, Homo sapiens, UniProt P49711, residues 1-727, full length assumed)
UniProt P49711, sequence (whole entry, looked up): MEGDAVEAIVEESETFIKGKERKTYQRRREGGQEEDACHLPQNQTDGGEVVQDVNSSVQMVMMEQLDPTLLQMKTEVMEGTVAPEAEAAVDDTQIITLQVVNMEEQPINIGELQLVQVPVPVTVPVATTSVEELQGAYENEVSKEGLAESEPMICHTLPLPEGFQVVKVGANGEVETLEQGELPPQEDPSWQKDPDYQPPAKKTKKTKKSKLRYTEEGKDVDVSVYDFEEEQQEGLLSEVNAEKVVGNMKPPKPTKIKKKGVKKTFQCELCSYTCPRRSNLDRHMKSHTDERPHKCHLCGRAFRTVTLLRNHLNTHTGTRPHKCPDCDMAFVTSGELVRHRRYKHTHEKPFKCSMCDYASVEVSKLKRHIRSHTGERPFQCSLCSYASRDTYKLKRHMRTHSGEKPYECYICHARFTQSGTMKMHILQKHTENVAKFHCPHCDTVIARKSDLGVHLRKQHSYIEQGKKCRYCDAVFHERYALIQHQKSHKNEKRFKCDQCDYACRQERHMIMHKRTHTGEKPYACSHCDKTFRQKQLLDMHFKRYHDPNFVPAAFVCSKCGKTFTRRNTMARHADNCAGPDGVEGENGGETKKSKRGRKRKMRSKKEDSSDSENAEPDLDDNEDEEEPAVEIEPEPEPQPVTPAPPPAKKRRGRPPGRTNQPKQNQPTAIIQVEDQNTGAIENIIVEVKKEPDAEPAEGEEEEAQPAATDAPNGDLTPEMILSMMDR
Method: protein-binding microarray
Molecule type: double-stranded DNA, one strand shown
Sample: in vitro
Tested at: not given
Setting: k-mer, scored over probes, only values ≥0.25
Reading: higher = stronger binding
Measurement: E-score
Sequence = ATATATTC; value = 0.295
Sequence = ACTGCGCA; value = 0.354
Sequence = TATATAGA; value = 0.291
Sequence = AAATTTAT; value = 0.288
Sequence = CAATTATA; value = 0.285
Sequence = TATACAAA; value = 0.299
Sequence = CAGGGGGC; value = 0.317
Sequence = ACTGTATA; value = 0.302
Sequence = AAATATAT; value = 0.385
Sequence = AATAATGA; value = 0.279
Sequence = TAGTAAAA; value = 0.267
Sequence = GTTACATA; value = 0.263
Sequence = AGCGCCAT; value = 0.271
Sequence = AATATTAG; value = 0.259
Sequence = CAATATAC; value = 0.369
Sequence = ACAATGCG; value = 0.264
Sequence = AGTAACAG; value = 0.251
Sequence = AAAAATAC; value = 0.262
Sequence = ATGCGCCA; value = 0.468

Block 4
Target: CCNB3, cyclin fold, Cln2 fusion (human)
Method: yeast growth competition, sequencing
Sample: yeast
Setting: weak parent motif
Reference: not given
Reading: higher = stronger binding
Measurement: normalised enrichment score
Starting sequence: ORC1 docking peptide (human); PRARKRLELGNLG; partner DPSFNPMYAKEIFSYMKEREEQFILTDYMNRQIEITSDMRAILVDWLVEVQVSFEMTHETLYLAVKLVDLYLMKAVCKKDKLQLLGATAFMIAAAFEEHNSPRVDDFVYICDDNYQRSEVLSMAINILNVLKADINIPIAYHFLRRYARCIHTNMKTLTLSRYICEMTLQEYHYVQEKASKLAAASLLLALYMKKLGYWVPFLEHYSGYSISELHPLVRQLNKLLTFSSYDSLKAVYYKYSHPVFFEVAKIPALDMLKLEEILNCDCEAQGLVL
Substitution = P1N; value = 0.383
Substitution = E8T; value = -0.356
Substitution = N11Q; value = -0.38
Substitution = R4D; value = 0.231
Substitution = G13T; value = -0.0251
Substitution = G10H; value = -0.0642
Substitution = N11I; value = -0.241
Substitution = R2F; value = 0.0694
Substitution = R4K; value = -0.0161
Substitution = L7T; value = -0.211
Substitution = R6V; value = 0.0702
Substitution = R6A; value = -0.00787
Substitution = L12I; value = 0.216
Substitution = R6F; value = 0.56
Substitution = N11L; value = 0.206
Substitution = L7A; value = 0.175
Substitution = A3D; value = 0.0391
Substitution = L12P; value = 0.416
Substitution = E8G; value = 0.09
Substitution = K5L; value = -0.0501
Substitution = K5Y; value = 0.0352
Substitution = A3P; value = 0.0158
Substitution = G13S; value = 0.419
Substitution = R6D; value = 0.0819
Substitution = L12T; value = 0.282
